Results from different studies.
Protocols differ between the studies behind these lines.

`COC1C=COC2(C)Oc3c(C)c(O)c4c(c3C2=O)C2=NC3(CCN(CC(C)C)CC3)NC2=C(NC(=O)C(C)=CC=CC(C)C(O)C(C)C(O)C(C)C(OC(=O)Nc2cccnn2)C1C)C4=O` (stereo not drawn) has an MIC of 0.038 µM (Mycobacteroides abscessus; broth microdilution; ATCC 19977).
`C[C@@H]1C(=O)O[C@@H](C)/C=C/C=C\[C@@H](C)[C@@H]2C=C[C@@H]3C[C@@]4(C)O[C@H]4[C@@H](C)[C@H]3[C@@H]2C(=O)C(Cl)(Cl)C1=O` has an MIC of 0.025 µg/mL (Staphylococcus aureus; MRSA clinical isolate; resistant OXA/GEN/TET).
`N=C(N)NCCC[C@@H]1NC(=O)[C@@H](CCCNC(=N)N)NC(=O)[C@H](CCCNC(=N)N)NC(=O)[C@@H](C(c2ccccc2)c2ccccc2)NC(=O)[C@@H](C(c2ccccc2)c2ccccc2)NC(=O)[C@@H](C(c2ccccc2)c2ccccc2)NC(=O)[C@@H](CCCNC(=N)N)NC1=O` gave an MIC of 8 µg/mL (Candida parapsilosis; ATCC 22019).
The MIC of `CC1C=CC=CC(C)C2C=CC3CC(C)(O)C(Cl)C(C)C3C2C(=O)C(Cl)(Cl)C(=O)C(C)C(=O)O1` (stereo not drawn) is reported as 0.1 µg/mL (Staphylococcus aureus; MSSA clinical isolate; resistant PEN/CLI/ERY/SXT).
`Cc1c(CN(C)C(=O)/C=C/c2cnc3c(c2)CC(N)C(=O)N3)oc2ccccc12` (stereo not drawn) gave an MIC of 16 µg/mL (Escherichia coli; broth microdilution; AR-0085).
With `C=C(NC(=O)c1csc(-c2nc3c(cc2O)-c2nc(cs2)C(=O)NC(C(C)O)C(=O)NC(=C(C)OC)c2nc(cs2)C(=O)NC2c4nc(cs4)C(=O)NC(COC(=O)c4c5c6c(cccc6n4O)COC(=O)C(OC4CC(C)(O)C(N(C)C)C(C)O4)C2OC5)c2nc-3cs2)n1)C(N)=O` (stereo not drawn) the MIC was 0.0156 µg/mL (Staphylococcus aureus; microbial growth, agar dilution; ATCC29213).
`CCCCCCCC(=O)N[C@@H](CCN)C(=O)N[C@H](C(=O)N[C@@H](CN)C(=O)N[C@H]1CCNC(=O)[C@H]([C@@H](C)O)NC(=O)[C@H](CCN)NC(=O)[C@H](CCN)NC(=O)[C@H]([C@@H](C)O)NC(=O)[C@@H](CC(C)C)NC(=O)[C@H](CCN)NC1=O)[C@@H](C)O` gave an MIC of 0.5 µg/mL (Acinetobacter baumannii; ATCC 19606, CAMHB; 20 h, 37 °C).
`N=C(N)NCCC[C@@H]1NC(=O)[C@H](CCCNC(=N)N)NC(=O)[C@@H](CCCNC(=N)N)NC(=O)[C@@H](CCCNC(=N)N)NC(=O)[C@@H](C(c2ccccc2)c2ccccc2)NC(=O)[C@@H](Cc2c[nH]c3ccccc23)NC(=O)[C@@H](C(c2ccccc2)c2ccccc2)NC1=O` gave an MIC of 16 µg/mL (Candida parapsilosis; ATCC 22019).
`Oc1c(Br)cc(Br)c2nc3c(C(F)(F)F)cc(C(F)(F)F)cc3nc12` has an MIC of 0.1 µM (Staphylococcus aureus; 147 MRSA clinical isolate).
